Assay results from different studies.
Parts stem from different laboratories: compare values within a part only.
Sequence of UniProt P10721 (whole entry, unmodified, looked up): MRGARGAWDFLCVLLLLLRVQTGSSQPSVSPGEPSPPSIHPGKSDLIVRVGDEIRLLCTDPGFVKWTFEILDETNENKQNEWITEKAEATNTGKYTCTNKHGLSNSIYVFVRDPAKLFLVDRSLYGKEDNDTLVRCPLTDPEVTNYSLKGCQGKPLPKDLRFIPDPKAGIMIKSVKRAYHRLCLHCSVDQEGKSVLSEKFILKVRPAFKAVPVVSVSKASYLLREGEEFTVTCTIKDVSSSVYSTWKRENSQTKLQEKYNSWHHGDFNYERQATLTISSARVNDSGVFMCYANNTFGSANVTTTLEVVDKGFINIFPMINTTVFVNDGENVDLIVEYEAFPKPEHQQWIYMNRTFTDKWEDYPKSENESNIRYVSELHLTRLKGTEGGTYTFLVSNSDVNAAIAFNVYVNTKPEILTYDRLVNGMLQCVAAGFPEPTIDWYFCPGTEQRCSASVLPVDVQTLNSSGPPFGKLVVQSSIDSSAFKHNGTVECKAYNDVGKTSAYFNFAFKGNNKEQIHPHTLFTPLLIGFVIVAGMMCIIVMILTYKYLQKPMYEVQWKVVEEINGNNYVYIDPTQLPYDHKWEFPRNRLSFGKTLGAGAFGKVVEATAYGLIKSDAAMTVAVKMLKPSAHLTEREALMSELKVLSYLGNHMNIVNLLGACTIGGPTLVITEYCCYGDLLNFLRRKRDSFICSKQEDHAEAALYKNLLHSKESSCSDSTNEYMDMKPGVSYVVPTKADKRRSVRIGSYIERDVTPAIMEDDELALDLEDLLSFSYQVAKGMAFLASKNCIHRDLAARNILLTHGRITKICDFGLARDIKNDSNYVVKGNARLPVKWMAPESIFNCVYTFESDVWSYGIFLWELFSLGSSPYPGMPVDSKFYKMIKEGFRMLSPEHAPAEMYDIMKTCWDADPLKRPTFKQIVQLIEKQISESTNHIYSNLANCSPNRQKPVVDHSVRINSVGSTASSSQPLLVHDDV
Sequence of UniProt Q6P2M8 (whole entry, looked up): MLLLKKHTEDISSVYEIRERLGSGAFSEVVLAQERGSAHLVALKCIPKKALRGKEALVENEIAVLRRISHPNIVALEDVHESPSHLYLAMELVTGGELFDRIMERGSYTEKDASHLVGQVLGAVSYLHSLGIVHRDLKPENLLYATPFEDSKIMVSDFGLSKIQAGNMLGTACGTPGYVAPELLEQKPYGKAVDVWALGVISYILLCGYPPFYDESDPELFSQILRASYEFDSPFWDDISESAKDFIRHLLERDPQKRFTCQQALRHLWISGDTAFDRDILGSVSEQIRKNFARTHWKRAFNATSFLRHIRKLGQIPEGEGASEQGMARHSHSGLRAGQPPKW
Sequence of UniProt P28482 (whole entry, looked up): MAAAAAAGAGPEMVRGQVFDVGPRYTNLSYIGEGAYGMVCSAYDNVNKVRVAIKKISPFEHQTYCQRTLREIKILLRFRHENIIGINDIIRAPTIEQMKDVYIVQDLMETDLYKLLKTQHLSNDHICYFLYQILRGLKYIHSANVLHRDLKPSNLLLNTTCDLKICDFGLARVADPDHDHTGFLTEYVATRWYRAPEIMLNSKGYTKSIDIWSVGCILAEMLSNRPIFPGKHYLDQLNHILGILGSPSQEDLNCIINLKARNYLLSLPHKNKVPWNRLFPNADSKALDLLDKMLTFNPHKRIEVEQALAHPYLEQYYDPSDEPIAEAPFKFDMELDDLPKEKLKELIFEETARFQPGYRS
Sequence of UniProt Q02750 (whole entry, looked up): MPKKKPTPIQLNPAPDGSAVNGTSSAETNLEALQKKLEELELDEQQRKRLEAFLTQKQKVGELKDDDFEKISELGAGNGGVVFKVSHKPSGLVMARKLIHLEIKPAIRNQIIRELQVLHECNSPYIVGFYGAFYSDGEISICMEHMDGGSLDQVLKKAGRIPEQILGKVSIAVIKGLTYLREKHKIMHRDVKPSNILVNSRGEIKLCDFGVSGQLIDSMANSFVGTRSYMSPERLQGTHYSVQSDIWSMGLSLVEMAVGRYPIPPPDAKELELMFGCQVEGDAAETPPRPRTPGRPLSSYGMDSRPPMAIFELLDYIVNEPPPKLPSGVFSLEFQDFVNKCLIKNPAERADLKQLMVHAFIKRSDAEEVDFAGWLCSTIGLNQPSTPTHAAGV
Sequence of UniProt Q8N4C8 (whole entry, looked up): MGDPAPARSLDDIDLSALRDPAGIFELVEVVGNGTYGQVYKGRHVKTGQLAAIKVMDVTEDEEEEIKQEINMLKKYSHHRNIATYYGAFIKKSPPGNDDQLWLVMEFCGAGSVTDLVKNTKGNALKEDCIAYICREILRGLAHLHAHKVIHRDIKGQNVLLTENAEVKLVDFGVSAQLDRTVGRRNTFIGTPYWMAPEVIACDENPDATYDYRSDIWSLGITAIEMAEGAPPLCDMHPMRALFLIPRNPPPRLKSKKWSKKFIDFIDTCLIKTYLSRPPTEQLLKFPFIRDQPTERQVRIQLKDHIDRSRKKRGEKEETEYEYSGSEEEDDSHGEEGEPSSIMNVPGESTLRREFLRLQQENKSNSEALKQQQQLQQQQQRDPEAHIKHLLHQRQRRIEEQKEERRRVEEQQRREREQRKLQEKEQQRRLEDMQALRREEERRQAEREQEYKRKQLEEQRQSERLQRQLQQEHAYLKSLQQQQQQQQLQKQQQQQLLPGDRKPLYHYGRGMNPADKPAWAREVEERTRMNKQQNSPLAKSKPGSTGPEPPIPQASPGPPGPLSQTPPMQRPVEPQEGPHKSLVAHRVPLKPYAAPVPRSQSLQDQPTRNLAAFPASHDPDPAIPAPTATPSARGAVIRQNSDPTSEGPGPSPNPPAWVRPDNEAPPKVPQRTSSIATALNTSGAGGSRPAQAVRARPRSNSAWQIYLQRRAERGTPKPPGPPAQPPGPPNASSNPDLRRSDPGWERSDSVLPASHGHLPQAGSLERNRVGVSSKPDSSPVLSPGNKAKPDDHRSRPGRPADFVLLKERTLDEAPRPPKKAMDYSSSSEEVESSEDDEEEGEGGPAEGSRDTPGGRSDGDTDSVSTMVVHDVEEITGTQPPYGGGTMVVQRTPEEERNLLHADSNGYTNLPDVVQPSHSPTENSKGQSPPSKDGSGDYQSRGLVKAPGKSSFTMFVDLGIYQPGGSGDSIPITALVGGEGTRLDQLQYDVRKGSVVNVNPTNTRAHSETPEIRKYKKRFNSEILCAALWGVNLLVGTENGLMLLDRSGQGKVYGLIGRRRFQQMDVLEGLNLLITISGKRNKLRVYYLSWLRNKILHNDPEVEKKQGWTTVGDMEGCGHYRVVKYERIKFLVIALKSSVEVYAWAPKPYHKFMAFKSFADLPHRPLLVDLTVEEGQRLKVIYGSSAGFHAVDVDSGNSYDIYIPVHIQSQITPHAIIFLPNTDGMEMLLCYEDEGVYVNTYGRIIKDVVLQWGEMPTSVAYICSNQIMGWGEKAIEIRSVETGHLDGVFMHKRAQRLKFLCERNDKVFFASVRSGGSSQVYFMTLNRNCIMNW
Sequence of UniProt O76039 (whole entry, looked up): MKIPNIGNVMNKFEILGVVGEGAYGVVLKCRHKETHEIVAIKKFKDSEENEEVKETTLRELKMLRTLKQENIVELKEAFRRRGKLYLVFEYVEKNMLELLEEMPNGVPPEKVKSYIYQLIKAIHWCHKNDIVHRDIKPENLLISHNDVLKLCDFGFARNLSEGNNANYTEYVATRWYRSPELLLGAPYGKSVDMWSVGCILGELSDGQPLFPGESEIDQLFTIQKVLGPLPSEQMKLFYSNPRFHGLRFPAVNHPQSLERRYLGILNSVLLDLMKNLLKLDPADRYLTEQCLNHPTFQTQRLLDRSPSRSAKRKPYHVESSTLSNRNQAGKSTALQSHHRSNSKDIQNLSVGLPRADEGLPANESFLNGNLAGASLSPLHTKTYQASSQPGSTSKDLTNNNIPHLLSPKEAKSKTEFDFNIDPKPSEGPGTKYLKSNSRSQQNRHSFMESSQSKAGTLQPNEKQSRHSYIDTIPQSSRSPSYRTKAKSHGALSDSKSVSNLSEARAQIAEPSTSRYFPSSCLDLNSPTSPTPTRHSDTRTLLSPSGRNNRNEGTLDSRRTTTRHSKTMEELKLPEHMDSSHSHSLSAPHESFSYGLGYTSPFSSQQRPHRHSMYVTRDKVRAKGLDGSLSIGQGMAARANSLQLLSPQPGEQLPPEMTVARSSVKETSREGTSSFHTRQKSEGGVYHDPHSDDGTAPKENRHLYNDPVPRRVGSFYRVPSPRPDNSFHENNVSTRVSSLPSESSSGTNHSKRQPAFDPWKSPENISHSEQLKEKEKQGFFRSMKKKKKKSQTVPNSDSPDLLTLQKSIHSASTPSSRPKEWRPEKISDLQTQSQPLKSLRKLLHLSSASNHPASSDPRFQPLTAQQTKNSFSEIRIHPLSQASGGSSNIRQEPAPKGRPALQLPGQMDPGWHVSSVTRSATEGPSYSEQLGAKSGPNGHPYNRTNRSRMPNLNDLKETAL
Sequence of UniProt Q9HAZ1 (whole entry, looked up): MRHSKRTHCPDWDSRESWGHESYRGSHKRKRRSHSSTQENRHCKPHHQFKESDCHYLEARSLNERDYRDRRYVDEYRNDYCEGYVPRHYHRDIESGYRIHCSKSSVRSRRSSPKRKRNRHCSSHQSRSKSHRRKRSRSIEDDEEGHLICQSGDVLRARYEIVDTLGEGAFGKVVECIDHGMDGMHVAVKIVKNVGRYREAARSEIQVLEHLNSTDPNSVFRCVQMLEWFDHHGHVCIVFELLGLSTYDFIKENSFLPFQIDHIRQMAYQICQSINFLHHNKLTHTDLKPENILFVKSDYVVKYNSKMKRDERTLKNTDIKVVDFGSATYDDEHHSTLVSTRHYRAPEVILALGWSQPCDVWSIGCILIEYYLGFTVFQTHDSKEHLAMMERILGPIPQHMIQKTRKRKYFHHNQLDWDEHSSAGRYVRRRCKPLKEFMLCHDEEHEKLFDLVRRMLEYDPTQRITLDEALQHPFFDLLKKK

Series 1 — effect on: cell-free assay; technique: competition with immobilised ligand; concentration: 1 µM
Structure (SMILES): CCOCCn1cc(C(=O)Nc2ccc(-n3nc(-c4cccnc4)cc3C(F)(F)F)cn2)ccc1=O
For CDKL5 (Homo sapiens, UniProt O76039): remaining binding read 90%.
For MAP2K2 (Homo sapiens, UniProt P36507): remaining binding read 94%.
The remaining binding was 87% (ERBB3 (Homo sapiens, UniProt P21860)).
The remaining binding was 92% (KIT (Homo sapiens, UniProt P10721, D816V)).
For KIT (Homo sapiens, UniProt P10721, T670I/V559D): remaining binding read 100%.
KIT (Homo sapiens, UniProt P10721, L576P) — remaining binding: 94%.
ROCK1 (Homo sapiens, UniProt Q13464) — remaining binding: 74%.
The remaining binding was 87% (TAOK1 (Homo sapiens, UniProt Q7L7X3)).
It gave 94% for remaining binding (Tyrosine-protein kinase ABL1, non-phosphorylated (ABL1, Homo sapiens, UniProt P00519)).

Series 2 — SMILES: CCN(CC)CCCCN1c2ccccc2Oc2ccc(Cl)cc21; effect on: enzyme activity; action: inhibitor; concentration: 0.5 µM; baseline: control
The remaining activity was 98.1% (MAP2K1 (Homo sapiens, UniProt Q02750)).
For GRK4 (Homo sapiens, UniProt P32298): remaining activity read 102%.
NEK3 (Homo sapiens, UniProt P51956) — remaining activity: 103%.
For MARK4 (Homo sapiens, UniProt Q96L34): remaining activity read 97.2%.
CLK4 (Homo sapiens, UniProt Q9HAZ1) — remaining activity: 97%.
CAMK4 (Homo sapiens, UniProt Q16566) — remaining activity: 98.9%.
For MINK1 (Homo sapiens, UniProt Q8N4C8): remaining activity read 111%.
The remaining activity was 80.8% (RPS6KA4 (Homo sapiens, UniProt O75676)).
It gave 101% for remaining activity (TXK (Homo sapiens, UniProt P42681)).
It gave 116% for remaining activity (PAK3 (Homo sapiens, UniProt O75914)).
The remaining activity was 107% (PNCK (Homo sapiens, UniProt Q6P2M8)).
It gave 84.7% for remaining activity (MAPK1 (Homo sapiens, UniProt P28482)).
KDR (Homo sapiens, UniProt P35968) — remaining activity: 93.7%.

Series 3 — cell line: A-375; concentration: 100 µM; time: 18 h
With `COc1ccnc(C[S+]([O-])c2nc3cc(-n4cccc4)ccc3[nH]2)c1C` (centres unmarked) the viability was 82%.
For `C[C@]12C=CC(=O)C=C1CC[C@H]1[C@@H]3C[C@@H](O)[C@](O)(C(=O)CO)[C@@]3(C)C[C@H](O)[C@@]12F`, the viability was 90.9%.
The viability of `CC(=O)OCC(CCn1cnc2cnc(N)nc21)COC(C)=O` is reported as 100%.
`CCCCC1C(=O)N(c2ccccc2)N(c2ccccc2)C1=O` gave a viability of 86.5%.
For `COC1=CC(=O)C[C@@H](C)[C@]12Oc1c(Cl)c(OC)cc(OC)c1C2=O`, the viability was 80.5%.
The viability of `CC(C)C(=O)Nc1ccc([N+](=O)[O-])c(C(F)(F)F)c1` is reported as 35.9%.

Series 4 — organism: Plasmodium berghei; action: inhibitor; cell line: Huh-7; strain: GFP-expressing sporozoites, liver stage; concentration: 10 µM; time: 24 h; baseline: untreated control
With `CO[C@@]1(NC(=O)Cc2cccs2)C(=O)N2C(C(=O)O)=C(COC(N)=O)CS[C@@H]21` the infection rate was 127%.
For `CCCCOC(=O)c1ccc(O)cc1`, the infection rate was 102%.
For `COCC1=C(C(=O)OC(C)OC(=O)OC(C)C)N2C(=O)[C@@H](NC(=O)/C(=N\OC)c3csc(N)n3)[C@H]2SC1` (some centres unmarked), the infection rate was 95.7%.
For `CCCCOc1cc(C(=O)NCCN(CC)CC)c2ccccc2n1`, the infection rate was 70.5%.

A few entries again (series 4):
For `COCC1=C(C(=O)OC(C)OC(=O)OC(C)C)N2C(=O)[C@@H](NC(=O)/C(=N\OC)c3csc(N)n3)[C@H]2SC1` (some centres unmarked), the infection rate was 95.7%.
For `CCCCOC(=O)c1ccc(O)cc1`, the infection rate was 102%.
With `CO[C@@]1(NC(=O)Cc2cccs2)C(=O)N2C(C(=O)O)=C(COC(N)=O)CS[C@@H]21` the infection rate was 127%.
For `CCCCOc1cc(C(=O)NCCN(CC)CC)c2ccccc2n1`, the infection rate was 70.5%.
